Measured values collected from several papers.
Parts stem from different laboratories: compare values within a part only. Changes are numbered by the printed parent chain.

Study 1 — method: RNAcompete; molecule type: RNA; matrix: in vitro; tested at: 20 nM; setting: 7-mer, probes averaged, single round; baseline: mean of 7-mers; reading: higher = stronger binding; endpoint: 7-mer Z-score
Target: PABPC1L2, full length, GST fusion (mouse, UniProt A0ABA7IW68)
Construct (chain): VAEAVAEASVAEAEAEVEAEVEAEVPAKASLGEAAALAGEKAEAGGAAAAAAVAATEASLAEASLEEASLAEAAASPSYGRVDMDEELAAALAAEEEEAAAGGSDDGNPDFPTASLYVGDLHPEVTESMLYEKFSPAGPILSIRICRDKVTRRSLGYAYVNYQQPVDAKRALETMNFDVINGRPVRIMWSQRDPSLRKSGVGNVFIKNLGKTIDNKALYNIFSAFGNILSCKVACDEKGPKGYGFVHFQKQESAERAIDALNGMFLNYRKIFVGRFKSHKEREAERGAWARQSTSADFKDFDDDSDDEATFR
Sequence = AAAACCC; result = 2.21
Sequence = CAGUGUA; result = 0.0442
Sequence = UAUUUUA; result = -0.168
Sequence = ACUGAAG; result = -0.0645
Sequence = GCACUUA; result = -0.0373
Sequence = CCUCUUC; result = -0.49
Sequence = CUUGCAC; result = -0.258
Sequence = CGUUCUG; result = -0.331
Sequence = ACGUAUA; result = 0.142
Sequence = GGGUGUU; result = -0.0681
Sequence = CUCUUGA; result = -0.32
Sequence = AUAUGGG; result = 0.263
Sequence = CAAAGUC; result = 0.135
Sequence = AUAUAGC; result = 0.00798
Sequence = AUGCAGG; result = 0.298
Sequence = CCUGUAG; result = -0.289
Sequence = GAUCCGC; result = -0.383
Sequence = UAAAACA; result = 4.47
Sequence = AGUGAAG; result = 0.0877

Study 2 — target: CCNB3, cyclin fold, Cln2 fusion (human); method: yeast growth competition, sequencing; matrix: yeast; setting: strong parent motif; baseline: not given; reading: higher = stronger binding; endpoint: normalised enrichment score
Starting sequence: SCAPER docking peptide (human); SNARRSLNFGGST; partner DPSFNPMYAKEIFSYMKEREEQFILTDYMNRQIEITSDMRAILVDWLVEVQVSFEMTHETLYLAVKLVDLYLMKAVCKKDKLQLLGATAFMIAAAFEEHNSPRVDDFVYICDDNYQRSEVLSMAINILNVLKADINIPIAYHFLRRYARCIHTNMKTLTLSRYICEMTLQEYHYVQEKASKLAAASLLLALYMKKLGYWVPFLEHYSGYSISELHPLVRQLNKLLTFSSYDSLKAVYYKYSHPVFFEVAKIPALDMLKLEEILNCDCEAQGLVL
Change = SNARRSLYFGGST [N8Y]; result = 0.915
Change = SNARRSLNFPGST [G10P]; result = 0.749
Change = SNARRSLNRGGST [F9R]; result = 0.161
Change = SNANRSLNFGGST [R4N]; result = 0.338
Change = SNARRSLNFGGAT [S12A]; result = 1.65
Change = SNARESLNFGGST [R5E]; result = 0.238
Change = SNARRSLNFIGST [G10I]; result = 0.751
Change = SNARRSLNMGGST [F9M]; result = 0.707
Change = SNARRSLNFGGSR [T13R]; result = 1.55
Change = FNARRSLNFGGST [S1F]; result = 2.68
Change = SNARGSLNFGGST [R5G]; result = -0.0731
Change = SNARRSLNFGDST [G11D]; result = 1.58
Change = SNARRSLNFWGST [G10W]; result = 0.533
Change = SNARRSLNFGGDT [S12D]; result = 1.31
Change = SNQRRSLNFGGST [A3Q]; result = 0.0229
Change = SNARRSLNFGGSC [T13C]; result = 1.59
Change = SNARRSVNFGGST [L7V]; result = 0.0229
Change = SNARRNLNFGGST [S6N]; result = 0.61
Change = SNARRSLNDGGST [F9D]; result = 0.463
Change = SNFRRSLNFGGST [A3F]; result = 1.05
Change = MNARRSLNFGGST [S1M]; result = 2.01
Change = SNARRSINFGGST [L7I]; result = 0.557
Change = SNARHSLNFGGST [R5H]; result = 0.296
Change = SNAKRSLNFGGST [R4K]; result = 0.457
Change = SNERRSLNFGGST [A3E]; result = 0.277

Study 3 — method: universal PBM; molecule type: double-stranded DNA, one strand shown; matrix: in vitro; tested at: 600 nM; reading: higher = stronger binding; endpoint: E-score
Target: Sal-like protein 4, full length isoform A (SALL4, Homo sapiens, UniProt Q9UJQ4, residues 1-1053)
Chain of UniProt Q9UJQ4 (whole entry, looked up): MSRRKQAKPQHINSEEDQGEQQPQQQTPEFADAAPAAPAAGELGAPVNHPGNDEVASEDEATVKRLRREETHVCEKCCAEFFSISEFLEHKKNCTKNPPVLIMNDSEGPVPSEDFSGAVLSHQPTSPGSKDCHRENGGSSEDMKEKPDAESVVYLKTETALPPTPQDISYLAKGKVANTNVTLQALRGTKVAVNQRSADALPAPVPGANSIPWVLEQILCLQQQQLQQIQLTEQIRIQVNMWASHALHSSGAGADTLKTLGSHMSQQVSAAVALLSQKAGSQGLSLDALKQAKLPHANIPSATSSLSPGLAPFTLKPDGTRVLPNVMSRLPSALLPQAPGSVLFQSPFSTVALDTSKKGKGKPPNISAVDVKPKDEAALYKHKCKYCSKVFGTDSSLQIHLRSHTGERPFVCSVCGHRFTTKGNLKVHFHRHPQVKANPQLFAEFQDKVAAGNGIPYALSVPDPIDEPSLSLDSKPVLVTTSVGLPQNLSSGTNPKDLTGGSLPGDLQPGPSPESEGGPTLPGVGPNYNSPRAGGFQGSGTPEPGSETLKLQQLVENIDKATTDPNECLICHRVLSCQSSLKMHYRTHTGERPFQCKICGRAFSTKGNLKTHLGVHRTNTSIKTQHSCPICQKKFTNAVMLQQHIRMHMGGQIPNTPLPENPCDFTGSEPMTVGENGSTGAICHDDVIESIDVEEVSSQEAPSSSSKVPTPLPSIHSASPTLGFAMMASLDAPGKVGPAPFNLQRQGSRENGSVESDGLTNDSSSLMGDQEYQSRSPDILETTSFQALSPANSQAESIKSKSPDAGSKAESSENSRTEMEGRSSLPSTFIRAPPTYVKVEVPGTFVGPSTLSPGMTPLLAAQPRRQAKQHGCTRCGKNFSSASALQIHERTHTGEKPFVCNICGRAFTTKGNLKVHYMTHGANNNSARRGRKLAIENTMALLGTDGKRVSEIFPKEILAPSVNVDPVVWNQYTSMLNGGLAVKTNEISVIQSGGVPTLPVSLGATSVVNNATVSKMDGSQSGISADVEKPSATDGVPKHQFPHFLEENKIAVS
Setting: 8-mer, flanks averaged, mean of replicates
Sequence = CCACCTGG; result = -0.335
Sequence = AGTCGAAC; result = -0.127
Sequence = ATAGGTGA; result = 0.105
Sequence = ATTTCCTC; result = 0.0897
Sequence = AAGCAGAC; result = -0.188
Sequence = CCTATTAC; result = 0.189
Sequence = TGGCTAAA; result = 0.171
Sequence = AGACTGTC; result = -0.117
Sequence = GATACCTA; result = 0.184
Sequence = AGGGCACT; result = -0.327
Sequence = ACGTCCTC; result = -0.0875
Sequence = ACCGGAGC; result = -0.245
Sequence = CTTCCAAG; result = -0.0519
Sequence = ATTAACAC; result = 0.311
Sequence = AGACCGGG; result = -0.348
Sequence = CGAGTTCC; result = -0.0578
Sequence = CGTGCAAA; result = 0.0512
Sequence = ACGTCCAC; result = -0.124
Sequence = CCTGAAAC; result = 0.0166
Sequence = CCCCCATA; result = -0.051
Sequence = GACAGTCC; result = -0.252
Sequence = CTACGTTC; result = 0.0013
Sequence = AGCGCTCA; result = -0.227
Sequence = ATGGCGAG; result = -0.104

Study 4 — method: protein binding microarray; molecule type: double-stranded DNA, one strand shown; matrix: in vitro; tested at: not given; baseline: not given; reading: higher = stronger binding; endpoint: E-score
Target: Histone acetyltransferase KAT6A, winged helix 1, GST fusion (KAT6A, Homo sapiens, UniProt Q92794, residues 1-85)
Setting: 8-mer, flanks averaged, mean of 2 arrays, mostly near background
Target sequence (chain): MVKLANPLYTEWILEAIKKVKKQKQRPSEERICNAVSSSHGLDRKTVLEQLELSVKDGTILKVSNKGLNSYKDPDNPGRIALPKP
Sequence = CCGGTCTC; result = 0.0523
Sequence = CCATCGCC; result = 0.122
Sequence = AAACAGTT; result = 0.0548
Sequence = GCATTACC; result = 0.0172
Sequence = CATCCGAA; result = -0.0221
Sequence = TTGAGAAA; result = -0.225
Sequence = GGCTAGCC; result = 0.029
Sequence = CTTGTCAC; result = -0.0346
Sequence = ACGAATAC; result = -0.296
Sequence = CACCTCTG; result = -0.276
Sequence = CGGAGCAG; result = 0.207
Sequence = CCACAGAA; result = -0.188
Sequence = AACTTCTC; result = -0.239
Sequence = CGAGTTCA; result = -0.138
Sequence = ACAGACGC; result = 0.13
Sequence = ATGCTGTA; result = -0.098
Sequence = TAAATCGA; result = -0.0673
Sequence = ATGGACTA; result = -0.116
Sequence = ACTCCTCT; result = -0.153
Sequence = TCCACAAA; result = -0.249
Sequence = CACACCGA; result = 0.0816
Sequence = ACGGACCG; result = 0.295
Sequence = TCAAAGAA; result = -0.246
Sequence = AATGTCTG; result = -0.175
Sequence = ATGTAAGA; result = -0.0861

Study 5 — method: DHFR PCA, deep sequencing; matrix: yeast; together with: (+)-ABA 4.8 µM; baseline: wild-type fitted maximum; reading: higher = stronger binding; endpoint: relative binding score
Target: ABI1, truncated, D143A, DHFR fusion (Arabidopsis thaliana)
Setting: methotrexate growth selection, single substitutions
Starting sequence: PYL1, truncated, DHFR fusion (Arabidopsis thaliana); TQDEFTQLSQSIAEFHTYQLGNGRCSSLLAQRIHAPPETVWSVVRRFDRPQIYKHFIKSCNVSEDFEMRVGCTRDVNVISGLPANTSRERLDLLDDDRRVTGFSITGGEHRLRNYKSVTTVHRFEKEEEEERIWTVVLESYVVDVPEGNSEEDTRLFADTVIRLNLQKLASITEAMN
Change = A35V; result = 16.1%
Change = H34I; result = 45.2%
Change = V40R; result = -10.9%
Change = T6A; result = 80.2%
Change = E139V; result = 63.6%
Change = Q10L; result = 53.2%
Change = D65S; result = 64.1%
Change = T120K; result = 0.657%
Change = T173R; result = 1.35%
Change = E109P; result = 0.35%
Change = D96R; result = -8.38%
Change = R163N; result = 21.3%
Change = T154H; result = -1.28%
Change = D153N; result = 4.61%
Change = T39W; result = 33.7%
Change = Q167T; result = 67.6%
Change = I133S; result = 81.4%
Change = L166Y; result = 0.254%
Change = V121E; result = -4.08%
Change = E129M; result = 62.7%
Change = M68Q; result = 49%
Change = L8F; result = 79.8%

Study 6 — method: protein-binding microarray; molecule type: double-stranded DNA, one strand shown; matrix: in vitro; tested at: 250 nM; setting: 60-bp whole probe; together with: salmon DNA 0.4 mg/ml; baseline: random background probes; reading: higher = stronger binding; endpoint: log fluorescence; all sequences stand within: GCCTAGCAC … GTCTTGATTCGCTTGACGCTGCTG
Target: Interferon regulatory factor 5, full length, phosphomimetic (IRF5, Homo sapiens, UniProt Q13568-2, residues 1-514, K96S/S451D/S453D/S456D/S462D)
Sequence = GACGCTATCGGTATCGGGACGTGCTAG; result = 6.83 z-score
Sequence = TCAGTTTCCAGTATATTACTGTGCTAG; result = 1.34 z-score
Sequence = CATTATATTTTAATCACATAGTGCTAG; result = 0.725 z-score
Sequence = GAGGGACTGGGGTTTCGGGACGTGCTA; result = 1.06 z-score
Sequence = GACGGACTGGCGTATCGGGACGTGCTA; result = -0.0479 z-score
Sequence = TTCTTAATGCTTCTGGACCAGTGCTAG; result = -0.0431 z-score
Sequence = TCAGAACTGGGGACTGGATTAGTGCTA; result = -0.765 z-score
Sequence = TTAGATTTCGGGACGGGATTAGTGCTA; result = 3.01 z-score
Sequence = TCAAGCCTCAGGCCTCACACTGTGCTA; result = -0.693 z-score
Sequence = TTAGATCTCAGTTTCGATTTGTGCTAG; result = 9.37 z-score
Sequence = TTAGGACTTGGTCTCGGTTAGTGCTAG; result = 0.589 z-score
Sequence = GACGAACTGAGTTTCGGGACGTGCTAG; result = 5.91 z-score
Sequence = TTAGGTTCCTGTTTCGGTTAGTGCTAG; result = 8.77 z-score
Sequence = GACGAACTGGGTCTCGAGACGTGCTAG; result = -0.466 z-score
Sequence = TCAACCATCCTATGTAGAACTGTGCTA; result = 0.239 z-score

Excerpt of the above (study 1):
Sequence = AAAACCC; result = 2.21
Sequence = CAGUGUA; result = 0.0442
Sequence = UAUUUUA; result = -0.168
Sequence = ACUGAAG; result = -0.0645
Sequence = GCACUUA; result = -0.0373
Sequence = CCUCUUC; result = -0.49
Sequence = CUUGCAC; result = -0.258
Sequence = CGUUCUG; result = -0.331
Sequence = ACGUAUA; result = 0.142
Sequence = GGGUGUU; result = -0.0681
Sequence = CUCUUGA; result = -0.32
Sequence = AUAUGGG; result = 0.263
Sequence = CAAAGUC; result = 0.135
Sequence = AUAUAGC; result = 0.00798
Sequence = AUGCAGG; result = 0.298
Sequence = CCUGUAG; result = -0.289
Sequence = GAUCCGC; result = -0.383
